Assay results of several laboratories.
Compare with care: the assays were run in different laboratories.
Cell line: SK-OV-3

O=Cc1ccc2c(c1C#Cc1ccc(O)cc1)C(c1ccc(O)cc1)(c1ccc(O)cc1)c1cc(O)ccc1-2
IC50 (cell growth or viability, MTT; 48 h): > 50 µM

Cc1ccc([N+](=O)[O-])cc1S(=O)(=O)N(C)/N=C/c1cnc2ccc(Br)cn12
IC50 (cell viability, MTS): 0.291 µM

CCCc1cc2cc(-n3nc(C4CCC4)c4c3CC(C)(C)CC4=O)cc(N3CCC(O)CC3)c2c(=O)[nH]1
IC50 (cell growth or viability, MTS): > 50 µM

CNC(NN=Cc1ccc([N+](=O)[O-])o1)=[S+][Au-][Cl]
IC50 (cell growth or viability, resazurin): 16.2 µM

CC(C)c1ccc(N(C)c2ccc3c(c2)OCC[C@H]3CNc2cnccc2C(=O)O)cc1
IC50 (cell growth or viability, ATP luminescence; 7 days): ≥ 10 µM

CCCc1cc2cc(-n3nc(CC(C)C)c4c3CC(C)(C)CC4=O)cc(N3CCC(O)CC3)c2c(=O)[nH]1
IC50 (cell growth or viability, MTS): 9.91 µM

O=[N+]([O-])c1ccc(C=NNC(Nc2ccccc2)=[S+][Au-][Cl])o1
IC50 (cell growth or viability, resazurin): 87.8 µM

Oc1ccc(C#Cc2c(O)ccc3c2C(c2ccc(O)cc2)(c2ccc(O)cc2)c2cc(O)ccc2-3)cc1
IC50 (cell growth or viability, MTT; 48 h): 15.5 µM

O=C(O)c1ccc2c3n(nc2c1)[C@@H]1[C@H](CO3)N(CC2CC2)[C@@]2(C(=O)Nc3cc(Cl)ccc32)[C@H]1c1cccc(Cl)c1F
IC50 (cell growth or viability, ATP luminescence): > 5 µM

NC(NN=Cc1ccc([N+](=O)[O-])o1)=[S+][Au-][Cl]
IC50 (cell growth or viability, resazurin): 19.1 µM

C=CC(=O)N1CCC(Cc2ccc(C(=O)N3CCN(c4nc(-c5cnc(N)nc5C(F)F)nc(N5CCOCC5)n4)CC3)cc2)CC1
IC50 (Akt phosphorylation, inhibitor, in-cell western, measured: Akt pSer473): 0.0537 µM

CCCc1cc2cc(-n3nc(C)c4c3CC(C)(C)C(C)C4=O)cc(N3CCC(O)CC3)c2c(=O)[nH]1 (racemic)
IC50 (cell growth or viability, MTS): 21.5 µM

CNC(=S)NN=Cc1ccc([N+](=O)[O-])o1
IC50 (cell growth or viability, resazurin): 27.9 µM

CCCc1cc2cc(-n3nc(C(F)F)c4c3CC(C)(C)CC4=O)cc(N3CCC(O)CC3)c2c(=O)[nH]1
IC50 (cell growth or viability, MTS): 2.54 µM

COC(OC)c1ccc(-c2ccc(O)cc2)c(C(=C2C=CC(=O)C=C2)c2ccc(O)cc2)c1C#Cc1ccc(O)cc1
IC50 (cell growth or viability, MTT; 48 h): > 50 µM

A few entries again:
C=CC(=O)N1CCC(Cc2ccc(C(=O)N3CCN(c4nc(-c5cnc(N)nc5C(F)F)nc(N5CCOCC5)n4)CC3)cc2)CC1
IC50 (Akt phosphorylation, inhibitor, in-cell western, measured: Akt pSer473): 0.0537 µM
